# Assay results from different studies.
# Parts stem from different laboratories: compare values within a part only. Changes are numbered by the printed parent chain.
# Sequence of UniProt P42336 (whole entry, unmodified, looked up): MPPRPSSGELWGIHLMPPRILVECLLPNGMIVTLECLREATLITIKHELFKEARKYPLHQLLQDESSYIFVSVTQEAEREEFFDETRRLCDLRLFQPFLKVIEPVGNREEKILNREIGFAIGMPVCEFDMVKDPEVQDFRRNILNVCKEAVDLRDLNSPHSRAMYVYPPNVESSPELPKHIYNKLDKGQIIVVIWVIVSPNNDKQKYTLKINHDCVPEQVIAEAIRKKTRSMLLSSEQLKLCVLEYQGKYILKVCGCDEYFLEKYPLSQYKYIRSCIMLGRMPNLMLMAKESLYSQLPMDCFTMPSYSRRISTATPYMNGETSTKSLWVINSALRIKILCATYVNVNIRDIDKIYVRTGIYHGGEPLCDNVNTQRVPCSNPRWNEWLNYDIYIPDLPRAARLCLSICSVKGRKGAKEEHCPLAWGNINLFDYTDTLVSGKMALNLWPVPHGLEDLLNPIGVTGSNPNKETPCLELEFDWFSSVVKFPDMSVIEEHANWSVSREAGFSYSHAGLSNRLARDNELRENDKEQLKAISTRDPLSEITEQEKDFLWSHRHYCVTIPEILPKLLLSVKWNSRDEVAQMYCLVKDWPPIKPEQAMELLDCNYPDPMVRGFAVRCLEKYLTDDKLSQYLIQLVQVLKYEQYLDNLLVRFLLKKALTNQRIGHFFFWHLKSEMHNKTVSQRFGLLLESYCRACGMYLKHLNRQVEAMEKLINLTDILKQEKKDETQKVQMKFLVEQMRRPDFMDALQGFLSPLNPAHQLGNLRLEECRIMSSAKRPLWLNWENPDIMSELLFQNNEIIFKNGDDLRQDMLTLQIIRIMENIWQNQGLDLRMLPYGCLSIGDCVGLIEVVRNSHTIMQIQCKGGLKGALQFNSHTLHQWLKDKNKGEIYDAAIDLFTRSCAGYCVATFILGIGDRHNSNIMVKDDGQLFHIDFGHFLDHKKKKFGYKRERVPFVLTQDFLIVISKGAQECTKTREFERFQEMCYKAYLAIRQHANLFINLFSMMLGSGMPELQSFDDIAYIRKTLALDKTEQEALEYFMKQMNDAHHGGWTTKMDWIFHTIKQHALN
# Sequence of UniProt Q14289 (whole entry, looked up): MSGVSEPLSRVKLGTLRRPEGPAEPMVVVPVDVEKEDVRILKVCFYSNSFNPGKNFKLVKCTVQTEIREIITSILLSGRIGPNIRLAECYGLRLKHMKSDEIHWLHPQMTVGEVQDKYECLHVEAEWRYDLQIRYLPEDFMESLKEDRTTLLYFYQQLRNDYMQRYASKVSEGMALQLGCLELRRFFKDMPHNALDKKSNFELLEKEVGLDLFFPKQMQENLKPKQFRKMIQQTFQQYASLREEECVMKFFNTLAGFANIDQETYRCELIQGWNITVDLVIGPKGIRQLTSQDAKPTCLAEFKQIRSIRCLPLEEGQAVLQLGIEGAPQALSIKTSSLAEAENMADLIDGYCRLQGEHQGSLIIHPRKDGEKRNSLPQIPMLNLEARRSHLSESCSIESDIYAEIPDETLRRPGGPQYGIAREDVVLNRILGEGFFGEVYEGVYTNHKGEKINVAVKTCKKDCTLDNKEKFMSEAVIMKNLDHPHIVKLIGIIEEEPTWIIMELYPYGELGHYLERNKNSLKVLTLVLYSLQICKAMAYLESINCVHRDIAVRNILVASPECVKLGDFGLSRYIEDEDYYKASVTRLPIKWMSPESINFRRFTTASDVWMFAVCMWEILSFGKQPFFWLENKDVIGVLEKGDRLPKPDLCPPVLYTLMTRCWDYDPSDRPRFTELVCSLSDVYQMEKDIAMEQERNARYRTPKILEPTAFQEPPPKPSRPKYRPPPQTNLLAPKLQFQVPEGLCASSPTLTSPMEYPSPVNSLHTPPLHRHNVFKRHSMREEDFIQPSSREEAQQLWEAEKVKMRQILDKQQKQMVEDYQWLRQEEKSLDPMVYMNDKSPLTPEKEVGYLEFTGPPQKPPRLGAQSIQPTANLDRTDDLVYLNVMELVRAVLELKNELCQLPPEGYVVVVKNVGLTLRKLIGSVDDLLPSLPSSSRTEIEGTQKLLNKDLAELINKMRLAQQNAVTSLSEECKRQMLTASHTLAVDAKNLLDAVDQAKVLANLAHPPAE
# Sequence of UniProt P42680 (whole entry, looked up): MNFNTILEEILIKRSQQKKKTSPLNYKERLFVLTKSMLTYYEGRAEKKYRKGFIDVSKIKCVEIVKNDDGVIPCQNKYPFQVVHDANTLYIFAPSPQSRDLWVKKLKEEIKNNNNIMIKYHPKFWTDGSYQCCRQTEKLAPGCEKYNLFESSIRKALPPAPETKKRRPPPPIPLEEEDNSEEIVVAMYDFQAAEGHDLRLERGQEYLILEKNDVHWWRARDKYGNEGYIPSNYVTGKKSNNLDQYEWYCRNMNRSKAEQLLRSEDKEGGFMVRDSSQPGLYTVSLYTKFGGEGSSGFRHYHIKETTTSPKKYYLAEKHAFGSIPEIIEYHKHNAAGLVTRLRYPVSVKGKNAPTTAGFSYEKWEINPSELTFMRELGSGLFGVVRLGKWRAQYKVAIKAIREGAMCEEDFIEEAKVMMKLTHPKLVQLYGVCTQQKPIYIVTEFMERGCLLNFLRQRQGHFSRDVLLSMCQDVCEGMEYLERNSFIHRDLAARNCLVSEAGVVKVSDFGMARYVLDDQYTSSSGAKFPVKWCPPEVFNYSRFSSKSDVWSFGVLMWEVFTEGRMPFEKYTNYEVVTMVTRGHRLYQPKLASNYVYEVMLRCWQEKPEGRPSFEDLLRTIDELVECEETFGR
# Sequence of UniProt Q99640 (whole entry, looked up): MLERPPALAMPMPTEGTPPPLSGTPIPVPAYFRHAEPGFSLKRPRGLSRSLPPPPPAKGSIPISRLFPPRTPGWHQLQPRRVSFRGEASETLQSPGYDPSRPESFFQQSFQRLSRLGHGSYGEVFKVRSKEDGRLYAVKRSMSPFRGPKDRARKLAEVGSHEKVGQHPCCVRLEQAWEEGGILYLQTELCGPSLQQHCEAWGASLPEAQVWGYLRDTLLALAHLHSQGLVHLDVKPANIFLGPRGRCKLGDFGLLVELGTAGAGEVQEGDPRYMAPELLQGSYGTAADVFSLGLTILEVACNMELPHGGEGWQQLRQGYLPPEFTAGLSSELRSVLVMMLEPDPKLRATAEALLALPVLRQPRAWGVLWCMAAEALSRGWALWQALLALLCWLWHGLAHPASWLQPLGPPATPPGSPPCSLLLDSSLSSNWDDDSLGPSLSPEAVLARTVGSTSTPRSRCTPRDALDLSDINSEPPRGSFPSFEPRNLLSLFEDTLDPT
# Sequence of UniProt Q9UBF8 (whole entry, looked up): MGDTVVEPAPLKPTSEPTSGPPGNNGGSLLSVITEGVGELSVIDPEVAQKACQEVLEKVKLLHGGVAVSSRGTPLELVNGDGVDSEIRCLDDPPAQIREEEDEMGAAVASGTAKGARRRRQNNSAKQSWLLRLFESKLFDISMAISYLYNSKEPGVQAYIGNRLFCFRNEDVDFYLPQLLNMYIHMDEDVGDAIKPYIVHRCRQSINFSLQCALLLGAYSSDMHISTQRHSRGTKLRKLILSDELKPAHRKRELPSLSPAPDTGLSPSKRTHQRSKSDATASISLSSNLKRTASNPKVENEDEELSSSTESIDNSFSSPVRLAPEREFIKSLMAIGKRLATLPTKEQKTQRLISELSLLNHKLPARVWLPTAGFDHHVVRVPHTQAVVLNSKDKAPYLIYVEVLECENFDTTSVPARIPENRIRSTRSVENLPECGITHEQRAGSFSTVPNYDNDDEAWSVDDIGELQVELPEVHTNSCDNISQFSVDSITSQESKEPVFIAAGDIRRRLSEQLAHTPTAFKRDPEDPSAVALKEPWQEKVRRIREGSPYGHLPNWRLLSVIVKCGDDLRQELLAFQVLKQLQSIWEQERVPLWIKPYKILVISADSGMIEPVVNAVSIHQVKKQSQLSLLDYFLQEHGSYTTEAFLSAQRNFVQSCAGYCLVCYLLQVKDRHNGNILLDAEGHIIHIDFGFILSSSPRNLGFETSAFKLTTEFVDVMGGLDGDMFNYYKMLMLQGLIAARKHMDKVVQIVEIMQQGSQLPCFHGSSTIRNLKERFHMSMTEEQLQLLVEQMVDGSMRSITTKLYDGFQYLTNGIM

# Series 1 — method: protein binding microarray; form: double-stranded DNA, one strand shown; matrix: in vitro; concentration: not given; baseline: not given; reading: higher = stronger binding
# Target: Histone acetyltransferase KAT6A, both winged helices, GST fusion (KAT6A, Homo sapiens, UniProt Q92794, residues 1-181)
# Setting: 8-mer, flanks averaged, mean of 2 arrays, mostly near background
# Target sequence (chain): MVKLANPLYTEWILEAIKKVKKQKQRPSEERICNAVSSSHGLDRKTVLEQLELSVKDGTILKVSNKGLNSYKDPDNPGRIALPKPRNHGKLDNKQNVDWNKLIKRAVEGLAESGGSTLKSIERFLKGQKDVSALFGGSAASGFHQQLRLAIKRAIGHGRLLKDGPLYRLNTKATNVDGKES
Strand,E-score
AACATGGC,-0.0501
CCAATAAG,-0.0877
TACATAAA,-0.174
ACAATTGA,-0.0664
TACTCCTA,-0.152
GGATAGCA,0.00732
CCCGGTCG,0.276
CGTACGCC,0.26

# Series 2 — observed: enzyme activity; action: inhibitor; concentration: 0.5 µM; baseline: control
# Target: Protein kinase C epsilon type (PRKCE, Homo sapiens, UniProt Q02156)
# Sequence of UniProt Q02156 (whole entry, looked up): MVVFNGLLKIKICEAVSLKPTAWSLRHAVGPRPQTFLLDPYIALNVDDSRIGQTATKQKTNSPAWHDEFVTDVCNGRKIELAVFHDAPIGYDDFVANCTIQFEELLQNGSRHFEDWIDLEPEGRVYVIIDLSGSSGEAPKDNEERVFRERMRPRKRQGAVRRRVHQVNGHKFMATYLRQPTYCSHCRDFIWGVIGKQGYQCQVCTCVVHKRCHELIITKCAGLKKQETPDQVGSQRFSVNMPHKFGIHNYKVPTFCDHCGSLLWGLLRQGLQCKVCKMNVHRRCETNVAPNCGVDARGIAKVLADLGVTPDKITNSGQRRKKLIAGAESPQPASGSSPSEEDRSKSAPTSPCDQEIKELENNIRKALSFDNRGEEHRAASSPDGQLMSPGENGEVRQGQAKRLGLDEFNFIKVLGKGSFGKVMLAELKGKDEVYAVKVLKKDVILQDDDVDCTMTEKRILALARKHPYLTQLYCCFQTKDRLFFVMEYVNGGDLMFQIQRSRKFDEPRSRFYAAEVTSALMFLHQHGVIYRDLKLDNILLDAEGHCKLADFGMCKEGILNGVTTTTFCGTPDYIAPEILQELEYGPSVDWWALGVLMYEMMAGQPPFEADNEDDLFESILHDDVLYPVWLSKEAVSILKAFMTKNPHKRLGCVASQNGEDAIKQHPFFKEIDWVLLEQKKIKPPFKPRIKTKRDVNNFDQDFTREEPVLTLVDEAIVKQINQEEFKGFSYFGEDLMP
SMILES,remaining activity [%]
COc1cc2ncnc(Nc3ccc(F)c(Cl)c3)c2cc1OCCCN1CCOCC1,97.3
N#CC(C#N)=C(N)/C(C#N)=C/c1ccc(O)cc1,89.3
CN(C)c1ccc(C=C2C(=O)Nc3ccccc32)cc1,92.6
O=C1NC(=O)C(c2cn(CCCO)c3ncccc23)=C1c1cnccn1,102
Cn1sc(=O)n(Cc2ccccc2)c1=O,94.8
CCOC(=O)c1c(C)[nH]c(/C=C2\C(=O)Nc3ccccc32)c1C,98.2
COc1ccc(CNC(=O)Nc2ncc([N+](=O)[O-])s2)cc1,92.4
COc1ccc(OC)c2c(=S)c3ccccc3[nH]c12,93.3
Nc1[nH]nc2nc3ccccc3nc12,86.4
CC(C)[C@H](CO)Nc1nc(Nc2cc(N)cc(Cl)c2)c2ncn(C(C)C)c2n1,105
Cc1nc(-c2ccccc2)c(-c2ccncc2)o1,103
O=C(O)c1ccc2c3c1cccc3c(=O)n1c3ccccc3nc21,113
COc1cc2nccc(Oc3ccc(NC(=S)NC(=O)c4ccccc4C)cc3)c2cc1OC,99.7
O=c1c2ccccc2[nH]c(=S)n1CCN1CCC(=C(c2ccc(F)cc2)c2ccc(F)cc2)CC1,100

# Series 3 — method: competition with immobilised ligand; concentration: 1 µM
# Compound: CNC(=O)Nc1ccc2c(c1)CC[C@@]21OC(=O)N(CC(=O)N(Cc2ccc(F)cc2)[C@@H](C)C(F)(F)F)C1=O
target,assay,remaining binding [%]
"TEC (Homo sapiens, UniProt P42680)",binding,90
"FLT4 (Homo sapiens, UniProt P35916)",cell-free assay,89
"PKMYT1 (Homo sapiens, UniProt Q99640)",cell-free assay,74
"CDC42BPA (Homo sapiens, UniProt Q5VT25)",cell-free assay,100
"FES (Homo sapiens, UniProt P07332)",cell-free assay,94
"SGK1 (Homo sapiens, UniProt O00141)",cell-free assay,63
"PIK3CA (Homo sapiens, UniProt P42336, H1047L)",cell-free assay,95
"PTK2B (Homo sapiens, UniProt Q14289)",cell-free assay,73
"STK24 (Homo sapiens, UniProt Q9Y6E0)",cell-free assay,90
"PIK3CA (Homo sapiens, UniProt P42336, E545K)",cell-free assay,80
"PI4KB (Homo sapiens, UniProt Q9UBF8)",cell-free assay,74
"BRAF (Homo sapiens, UniProt P15056)",cell-free assay,93
"TEK (Homo sapiens, UniProt Q02763)",cell-free assay,87

# Series 4 — target: CCND2, cyclin fold, Cln2 fusion (human); method: yeast growth competition, sequencing; matrix: yeast; setting: weak parent motif; baseline: not given; reading: higher = stronger binding
# Starting sequence: PKN2 docking peptide (human); VSAVQKLDFSDTM
Change,normalised enrichment score
VSAVQKLDHSDTM [F9H],0.122
VSADQKLDFSDTM [V4D],0.141
VSAVQTLDFSDTM [K6T],0.211
VSAVQKYDFSDTM [L7Y],0.132
VSAVQKCDFSDTM [L7C],0.192
VSAVQYLDFSDTM [K6Y],0.143
VSAKQKLDFSDTM [V4K],0.0513
VSSVQKLDFSDTM [A3S],0.554

# Some of these lines once more (series 4):
Change,normalised enrichment score
VSADQKLDFSDTM [V4D],0.141
VSAVQTLDFSDTM [K6T],0.211
VSAVQKYDFSDTM [L7Y],0.132
VSAVQKCDFSDTM [L7C],0.192
VSAVQYLDFSDTM [K6Y],0.143
VSAKQKLDFSDTM [V4K],0.0513
VSSVQKLDFSDTM [A3S],0.554
